Published values gathered from unrelated publications.
Compare with care: the assays were run in different laboratories. “And” joins repeats or separate records; there may be more than shown. ± marks the error that the study gave.

Structure (SMILES)	cell line	assay	setting	scale	quantity	result
Cn1c(C#N)ccc1-c1ccc2c(c1)C(C)(C)OC(=S)N2	HEK293T ATF4-FLuc reporter	ATF4 reporter gene, activator, luciferase reporter			EC50	1.12 µM
O=C(O)/C=C/c1ccc(O)c(O)c1	Caco-2/THP-1 co-culture		0.25 µg/mL, with: LPS 250 ng/mL		kynurenine level	100 ± 5.3 % change
CC(=O)c1c(O)c(C)c(O)c2c1OC1=CC(=O)C(C(C)=O)C(=O)C12C (single isomer, unassigned; (+))	hepatocytes, iPSC-derived, line L2	cell viability	48 h		IC50	8 µM
COc1cc(NC(C)CCCN)c2ncccc2c1 (stereo not drawn)	human iPSC cardiomyocytes	plate-normalised	concentration not given, hit retest	reference: vehicle controls, SDs below control	MyBP-C level change	14.4 SD
CCCC(=O)[O-].[Na+]	Caco-2/THP-1 co-culture	TEER	concentration not given, with: LPS 500 ng/mL	reference: control	transepithelial electrical resistance	91.9 ± 4.5%
CCn1cc(-c2cc(Cn3ccoc3=N)cc3c2CCN([C@@H](C)c2cc(OC)ccn2)C3=O)c(C(F)(F)F)n1	NCI-H747	cell growth, inhibitor	120 h		EC50	> 30 µM
O=c1[nH]c(=O)c2ccccc2o1	THP-1	pyroptotic LDH release	2 µM, 40 min, with: LPS then nigericin		inhibition	57.4%
CNC(=O)[C@H]1O[C@@H](n2cnc3c(NCc4cccc(I)c4)nc(Cl)nc32)[C@H](O)[C@@H]1O	HEK293T ATF4-FLuc reporter	ATF4 reporter gene, activator, luciferase reporter			EC50	3.71 µM
COc1cc(CCC(=O)O)ccc1O	Caco-2/THP-1 co-culture		concentration not given, with: LPS 50 ng/mL		kynurenine level	128 ± 12.4 % change
CCCN1CCN(c2ccc3nc(-c4ccc5nc(-c6cc(OC)ccc6OC)[nH]c5c4)[nH]c3c2)CC1	OVCAR-8	SRB	10 µM, 48 h		growth percent	106%
CCCCCCCCCc1ccc(OCCOCCOCCOCCOCCOCCOCCOCCOCCO)cc1	HEK293T ATF4-FLuc reporter	ATF4 reporter gene, activator, luciferase reporter			EC50	2.53 µM
CCN(CC)C(=O)c1cccnc1	THP-1	pyroptotic LDH release	2 µM, 40 min, with: LPS then nigericin		inhibition	45.4%
CCCCN1CCN(c2ccc3[nH]c(-c4ccc5[nH]c(-c6ccc(C(F)(F)F)cc6)nc5c4)nc3c2)CC1	SF-268	SRB	10 µM, 48 h		growth percent	-71.8%
COc1cc(/C=C/C(=O)O)ccc1O	Caco-2/THP-1 co-culture		concentration not given, with: LPS 500 ng/mL		kynurenine level	111 ± 5.8 % change
COc1cc(/C=C/C(=O)N2CCC=CC2=O)cc(OC)c1OC	MDA-MB-468	quantitative RT-PCR, refers to: FAS	30 µM, 8 h	reference: untreated cells	mRNA level	173 ± 8.9%
CC(C)(C)NC(=O)c1cncn1C1CCN(c2ccc(-c3nnc(C(F)(F)F)o3)cn2)CC1	HDMEC	qPCR, refers to: GILZ	concentration not given, unit not given	reference: DMSO	mRNA level	0.501
CC(=O)N(c1onc(C)c1C)S(=O)(=O)c1ccc(N)cc1	THP-1	pyroptotic LDH release	2 µM, 40 min, with: LPS then nigericin		inhibition	-20.2%
CCn1cc(-c2cc(Cn3ccnc3)cc3c2CCN([C@H](c2cc(OC)ccn2)C2CC2)C3=O)c(C(F)(F)F)n1	NCI-H322	cell growth, inhibitor	120 h		EC50	> 30 µM
C=C[C@@]1(C)CC(=O)[C@]2(O)[C@@]3(C)[C@@H](O)CCC(C)(C)[C@@H]3[C@H](O)[C@H](OC(C)=O)[C@@]2(C)O1	HEK293T ATF4-FLuc reporter	ATF4 reporter gene, activator, luciferase reporter			EC50	0.217 µM
CCCCOc1ccc(OCCCN2CCOCC2)cc1	THP-1	pyroptotic LDH release	2 µM, 40 min, with: LPS then nigericin		inhibition	25.5%
CC/C(=N\NC(=O)NCc1cccc(O)c1)c1ccc(O)c(C)c1O	SK-OV-3	gene expression, microarray, refers to: THBS1	10 µM, 24 h	reference: DMSO	log ratio	3.73

Structure (SMILES)	cell line	assay	setting	scale	quantity	result
CNc1nc(-c2cccc(NC(=O)c3ccc(C(=O)OC)cc3)c2)c2cc(OC)c(OC)cc2n1	HEK293T ATF4-FLuc reporter	ATF4 reporter gene, activator, luciferase reporter			EC50	> 9.96 µM
CCc1c(-c2ccccc2)c(-c2ccccc2)nn1-c1ccccc1-c1cccc(OCC(=O)O)c1	mouse osteoclasts	RT-qPCR, refers to: Itgb3	concentration not given, unit not given	reference: bone marrow macrophages	mRNA level	2.75 and 2.46 and 2.85
O=C(c1ccc(O)cc1)c1ccc(O)cc1	THP-1	pyroptotic LDH release	2 µM, 40 min, with: LPS then nigericin		inhibition	-5.29%
COc1cnc2cccc(N3CCc4c(cc(Cn5ccnc5C)cc4-c4cn(C)nc4C(F)(F)F)C3=O)c2c1	COR-L105	cell growth, inhibitor	120 h		EC50	> 30 µM
C[C@H](Nc1cc(-c2cnn(C)c2)cc(Nc2cnccn2)n1)c1ccc(F)cc1	HEK293T ATF4-FLuc reporter	ATF4 reporter gene, activator, luciferase reporter			EC50	> 9.96 µM
CCCCN1C[C@H](O)[C@@H](O)[C@@H](O)[C@H]1CO	sample D patient fibroblasts	GlcCer level lowering, LC-MS/MS, refers to: GlcCer d18:1/24:1	216 h		IC50	61.1 µM
C#C[C@@]1(O)[C@@H](CO)O[C@@H](n2cc(F)c3c(N)ncnc32)[C@@H]1O	RXF 393	SRB	NCI-60 screen		TGI	2.99 µM
Cn1c(Nc2nc3ccc(C(F)(F)F)cc3s2)nc2cc(C(=O)NCCOCCO)ccc21	SH-SY5Y	RNA-seq, refers to: FOSL1 mRNA	5 µM, 5 h	reference: untreated cells	fold change	4.45
CCOc1cc(-c2nccc3cc(OC)c(OC)cc23)cc(OCC)c1OCC	HEK293T ATF4-FLuc reporter	ATF4 reporter gene, activator, luciferase reporter			EC50	> 9.96 µM
C[C@H]1Oc2cc(cnc2N)-c2c(nn(C)c2C#N)CN(C)C(=O)c2ccc(F)cc21	Ba/F3 EML4-ALK variant 1 L1196Q	cell viability			Emax	100%
CC=CC(=O)N(CC)c1ccccc1C (mixture of isomers)	THP-1	pyroptotic LDH release	2 µM, 40 min, with: LPS then nigericin		inhibition	-1.22%
O=C(C[C@@H](C(F)F)n1ccc(F)n1)N1CCC(O)(Cn2cnc3c(cnn3-c3ccc(F)cc3)c2=O)CC1	CHP-212 parental (wild-type USP7)	annexin V-PI flow cytometry	0.1 µM, 48 h		early apoptotic cells (annexin V+/PI-)	11% and 11.8% and 10.4%
Cc1cccc(-c2[nH]c(CNc3ccccc3F)nc2-c2ccc3ncnn3c2)n1	MM1.S	XTT	1 µM	reference: untreated	viability	71%
O=C(/C=C/C=C/C=C/C1CCCCC1)NC1=C[C@@](O)(/C=C/C=C/C=C/C(=O)NC2=C(O)CCC2=O)[C@@H]2O[C@@H]2C1=O	SW48	cell growth, CellTiter-Glo	78 h		GI50	14.7 µM
CSc1nc(-c2ccc(Cl)cc2)c2c(NC(=O)c3ccccc3)nnc-2[nH]1	RXF 393	SRB	10 µM, NCI60 single-dose screen	reference: untreated	cell growth	101%
O=S(=O)(O)CCCN1CCOCC1	THP-1	pyroptotic LDH release	2 µM, 40 min, with: LPS then nigericin		inhibition	-8.57%
CN(C)CCn1c(C(=O)N2CCN(c3ccccc3Cl)CC2)c(C(c2ccc(O)cc2)c2ccc(O)cc2)c2ccccc21	HEK293T ATF4-FLuc reporter	ATF4 reporter gene, activator, luciferase reporter			EC50	5.88 µM
Cc1cc(Nc2ncc(Cl)c(Nc3ccccc3S(=O)(=O)C(C)C)n2)c(OC(C)C)cc1C1CCNCC1	CLB-GE	phosphoproteomics LC-MS/MS, refers to: GAB1 phosphorylation	200 nM, 60 min	reference: untreated	log2 fold change	-4.31
COc1cc(N2CCN(C)CC2)ccc1Nc1nccc(-c2cn(C)c3cnccc23)n1	THP-1	pyroptotic LDH release	2 µM, 40 min, with: LPS then nigericin		inhibition	46.5%
Cn1cc(-c2ccc(-c3cncc(Cl)c3N3CCC4(CCNC4=O)CC3)cc2)cn1	COLO 205	gene expression, microarray, refers to: HSPA5 (GRP78) mRNA	concentration not given, 2 h	reference: untreated cells	log2 fold change	1.77
C[C@H](CS)C(=O)N1CCC[C@H]1C(=O)O	HUVEC		10 µM, with: angiotensin II		MDA content	6.46 nmol/mL

Some of these lines once more:
Structure (SMILES)	cell line	assay	setting	scale	quantity	result
CN(C)CCn1c(C(=O)N2CCN(c3ccccc3Cl)CC2)c(C(c2ccc(O)cc2)c2ccc(O)cc2)c2ccccc21	HEK293T ATF4-FLuc reporter	ATF4 reporter gene, activator, luciferase reporter			EC50	5.88 µM
COc1cc(CCC(=O)O)ccc1O	Caco-2/THP-1 co-culture		concentration not given, with: LPS 50 ng/mL		kynurenine level	128 ± 12.4 % change
CCn1cc(-c2cc(Cn3ccnc3)cc3c2CCN([C@H](c2cc(OC)ccn2)C2CC2)C3=O)c(C(F)(F)F)n1	NCI-H322	cell growth, inhibitor	120 h		EC50	> 30 µM
CCn1cc(-c2cc(Cn3ccoc3=N)cc3c2CCN([C@@H](C)c2cc(OC)ccn2)C3=O)c(C(F)(F)F)n1	NCI-H747	cell growth, inhibitor	120 h		EC50	> 30 µM
COc1cc(/C=C/C(=O)O)ccc1O	Caco-2/THP-1 co-culture		concentration not given, with: LPS 500 ng/mL		kynurenine level	111 ± 5.8 % change
O=C(c1ccc(O)cc1)c1ccc(O)cc1	THP-1	pyroptotic LDH release	2 µM, 40 min, with: LPS then nigericin		inhibition	-5.29%
CC(=O)c1c(O)c(C)c(O)c2c1OC1=CC(=O)C(C(C)=O)C(=O)C12C (single isomer, unassigned; (+))	hepatocytes, iPSC-derived, line L2	cell viability	48 h		IC50	8 µM
